Measured values collected from several papers.
Each line is one published result; not all experiments were run side by side.
Cell line: HCT-116

For CC(=NN=c1scc(-c2ccccc2)n1C)c1c(O)c2ccccc2oc1=O, the selectivity index was > 2.36 (cell growth, MTT; relative to: IC50 BJ-1 over HCT-116).
The selectivity index of COc1cccc2c1C(=O)c1c(O)c3c(c(O)c1C2=O)C[C@@](O)(C(=O)CO)C[C@@H]3O[C@H]1C[C@H](N)[C@H](O)[C@H](C)O1 is reported as 1.5 (MTT; 72 h; relative to: IC50 HaCaT over IC50 HCT-116).
CC(=NN=c1[nH]c(C)cs1)c1c(O)c2ccccc2oc1=O gave a selectivity index of > 3.07 (cell growth, MTT; relative to: IC50 BJ-1 over HCT-116).
O=P1(c2ccccc2)CCCCC1 has a selectivity index of 1 (MTT; 72 h; relative to: IC50 HaCaT over IC50 HCT-116).
COc1nc(NCc2cn(-c3ccc(NC(=O)c4ccc(F)cc4)cc3)nn2)nc(OC)n1 has a selectivity index of 1.21 (MTT; 72 h; relative to: normal colonocytes over HCT-116).
The selectivity index of CCn1c(C)c(N=Nc2ccc(C)cc2)sc1=NN=C(C)c1c(O)c2ccccc2oc1=O is reported as > 2.49 (cell growth, MTT; relative to: IC50 BJ-1 over HCT-116).
Cc1cc(NS(=O)(=O)c2ccc(NC(=O)/C(C#N)=C/c3ccc(N4CCOCC4)cc3)cc2)no1 gave a selectivity index of > 2.95 (cytotoxicity, MTT; relative to: HSF over HCT-116 IC50).
CCOC(=O)c1sc(=NN=C(C)c2c(O)c3ccccc3oc2=O)n(CC)c1C gave a selectivity index of > 4.05 (cell growth, MTT; relative to: IC50 BJ-1 over HCT-116).
COc1nc(NCc2cn(-c3ccc(NC(=O)c4ccccc4)cc3)nn2)nc(OC)n1 has a selectivity index of 0.96 (MTT; 72 h; relative to: normal colonocytes over HCT-116).
The selectivity index of Cc1cc(NS(=O)(=O)c2ccc(NC(=O)/C(C#N)=C/c3ccc(N4CCCC4)cc3)cc2)no1 is reported as > 2.03 (cytotoxicity, MTT; relative to: HSF over HCT-116 IC50).
For COc1nc(NCc2cn(-c3ccc(C(N)=O)cc3)nn2)nc(OC)n1, the selectivity index was 0.24 (MTT; 72 h; relative to: normal colonocytes over HCT-116).
COc1cccc2c1C(=O)c1c(O)c3c(c(O)c1C2=O)C[C@@](O)(C(=O)CO)C[C@@H]3O[C@H]1C[C@H](N)[C@H](O)[C@H](C)O1 has a selectivity index of 0.9 (relative to: BJ1 IC50 over HCT-116 IC50).
COc1nc(NCc2cn(-c3ccc(NC(=O)c4ccc(Cl)cc4)cc3)nn2)nc(OC)n1 gave a selectivity index of 0.54 (MTT; 72 h; relative to: normal colonocytes over HCT-116).
With CC(C)c1ccc(/C=C2\N=C(SCC(=O)O)N(c3ccccc3)C2=O)cc1 the selectivity index was 1.8 (relative to: BJ1 IC50 over HCT-116 IC50).
CC(=NN=C1SCC(=O)N1C)c1c(O)c2ccccc2oc1=O has a selectivity index of > 2.43 (cell growth, MTT; relative to: IC50 BJ-1 over HCT-116).

For quick reference, copied from above:
COc1cccc2c1C(=O)c1c(O)c3c(c(O)c1C2=O)C[C@@](O)(C(=O)CO)C[C@@H]3O[C@H]1C[C@H](N)[C@H](O)[C@H](C)O1 has a selectivity index of 0.9 (relative to: BJ1 IC50 over HCT-116 IC50).
